# Experimental data gathered from unrelated publications.
# Lines come from different studies, so protocols differ.
# Organism: Staphylococcus aureus
SMILES,assay,system,setting,how to read,endpoint,result
CC(CCCOC(=O)CCC[N+](C)(C)C)C1CCC2C3C(OC(=O)CCC[N+](C)(C)C)CC4CC(OC(=O)CCC[N+](C)(C)C)CCC4(C)C3CC(OC(=O)CCC[N+](C)(C)C)C12C (stereo not drawn),"microbial growth, disc diffusion",ATCC29213,"250 µg/disc, 24 h",,inhibition zone,13 mm
CCCCCC[N+](C)(C)CCCCOc1cc(OCCCC[N+](C)(C)CCCCCC)cc(OCCCC[N+](C)(C)CCCCCC)c1.[Br-].[Br-].[Br-],,SH1000 MSSA,,,MIC,32 µM
COc1cc(Cc2cnc(N)nc2N)cc(OC)c1OC.O=c1[nH]cc(F)c(=O)[nH]1,broth microdilution,,48 h,,MBC,4 mg/L
CC(C)C1=CC2=CCC3C(C)(C(=O)OCCC[N+](C)(C)C)CCCC3(C)C2CC1 (stereo not drawn),"microbial growth, disc diffusion",ATCC29213,"250 µg/disc, 24 h",,inhibition zone,19 mm
C=CC(=O)NCCCCOCc1cn(CCCCNC(=O)C=C)nn1,"growth, turbidity OD600",,24 h,,IC50,> 100 µM
N=C(N)NCCC[C@@H]1NC(=O)[C@H](CCCNC(=N)N)NC(=O)[C@@H](C(c2ccccc2)c2ccccc2)NC(=O)[C@H](Cc2c[nH]c3ccccc23)NC(=O)[C@@H](C(c2ccccc2)c2ccccc2)NC(=O)[C@@H](CCCNC(=N)N)NC(=O)[C@@H](CCCNC(=N)N)NC1=O,,MRSA ATCC BAA-1556,"2 × MIC, 24 h, pre-formed biofilm",,biofilm reduction,63 to 69%
CC[C@H](C)[C@H](NC(=O)[C@H](CC1CCCCC1)NC(=O)[C@@H](Cc1c[nH]c2ccccc12)NC(=O)[C@@H](N)CCCN)C(=O)N[C@@H](Cc1csc2ccccc12)C(=O)N[C@@H](Cc1cn(Cc2ccccc2)cn1)C(N)=O,,"ATCC 33591, methicillin-resistant",,,IC50,> 20 mg/L
O=C(Oc1cccccc1=O)c1ccccc1,"microbial growth, broth dilution",ATCC29213,,,MIC80,19.8 µM
C=CC(=O)NCCCCCCOCc1cn(CCCCCCNC(=O)C=C)nn1,"growth, turbidity OD600",,24 h,,IC50,> 100 µM
C=C(NC(=O)c1csc(-c2nc3c(cc2O)-c2nc(cs2)C(=O)NC(C(C)O)C(=O)NC(=C(C)OC)c2nc(cs2)C(=O)NC2c4nc(cs4)C(=O)NC(COC(=O)c4c5c6c(cccc6n4O)COC(=O)C(OC4CC(C)(O)C(N(C)C)C(C)O4)C2OC5)c2nc-3cs2)n1)C(N)=O (stereo not drawn),,MRSA ATCC 43300,2 × MIC,,post-antibiotic effect,~1.1 h
CC[C@H](C)[C@H](NC(=O)[C@H](CC1CCCCC1)NC(=O)[C@H](CC(C)C)NC(=O)[C@@H](N)CCCN)C(=O)N[C@H](Cc1ccccc1)C(=O)N[C@@H](Cc1cn(Cc2ccccc2)cn1)C(N)=O,bacterial growth,ATCC 29213,,,IC50,> 20 mg/L
CC[C@H](C)[C@H](NC(=O)[C@H](CCCN)NC(=O)[C@H](CC(N)=O)NC(=O)[C@H](Cc1c[nH]c2ccccc12)NC(=O)[C@H](Cc1ccccc1)NC(=O)[C@H](CCCN)NC(=O)[C@H](CCCCNC(=N)N)NC(=O)[C@H](CC(C)C)NC(=O)[C@H](Cc1c[nH]c2ccccc12)NC(=O)[C@H](CCCN)NC(=O)[C@H](CCCCNC(=N)N)NC(=O)[C@H](CC(C)C)NC(=O)CNC(C)=O)C(=O)N[C@@H](CCCN)C(=O)N[C@@H](CCCCNC(=N)N)C(N)=O,,,"concentration not given, with: NaCl 150 mM",reference: no added salt,MIC fold change,4 fold
COc1cc2c(cc1OC)C1Cc3ccc(OC)c(OC)c3C[NH+]1CC2.[Cl][Fe-]([Cl])([Cl])[Cl] (stereo not drawn),,,"24 h, 37 °C",,MBC,> 1600 µM
C=CS(=O)(=O)NCCCCCCCCOCc1cn(CCCCCCCCNS(=O)(=O)C=C)nn1,"growth, turbidity OD600",,24 h,,IC50,> 100 µM
CC(C)c1ccc2c(c1)CCC1C(C)(CN(CC(O)C[N+](C)(C)C)CC(O)C[N+](C)(C)C)CCCC21C (stereo not drawn),"microbial growth, disc diffusion",ATCC29213,"250 µg/disc, 24 h",,inhibition zone,18 mm
C=CC(=O)NCCCCCCCCOCc1cn(CCCCCCCCNC(=O)C=C)nn1,"growth, turbidity OD600",,24 h,,IC50,> 100 µM
CC[C@H]1OC(=O)[C@H](C)[C@@H](OC(=O)Cc2ccc(N(C)C)cc2)[C@H](C)[C@@H](O[C@@H]2O[C@H](C)C[C@H](N(C)C)[C@H]2O)[C@](C)(OC)C[C@@H](C)C(=O)[C@H](C)[C@@H](O)[C@]1(C)O,microbial growth,BAA976,,,MIC,64 mg/L
CCCCCCCCCC(=O)N[C@@H](Cc1c[nH]c2ccccc12)C(=O)N[C@H](CC(N)=O)C(=O)N[C@@H](CC(=O)O)C(=O)N[C@@H]1C(=O)NCC(=O)N[C@@H](CCCNC(=O)OC2/C=C/CCCCC2)C(=O)N[C@@H](CC(=O)O)C(=O)N[C@H](C)C(=O)N[C@@H](CC(=O)O)C(=O)NCC(=O)N[C@H](CO)C(=O)N[C@@H]([C@H](C)CC(=O)O)C(=O)N[C@@H](CC(=O)c2ccccc2N)C(=O)O[C@@H]1C (stereo partly drawn),"planktonic bacterial growth, isothermal microcalorimetry",MSSA,"2.5 µg/mL, 24 h, 37 °C, with: TAG hydrogel",,peak heat flow time,0 h
CCCC(=O)Oc1c(C)c(OC)c2c(c1C)OC(=O)[C@@H](CC)[C@]2(O)/C=C/c1ccccc1 (racemic),"microbial killing, broth dilution",ATCC25923,,,MBC,> 5000 mg/L
CC[C@H](C)[C@H](NC(=O)[C@H](CC1CCCCC1)NC(=O)[C@@H](NC(=O)[C@@H](N)CCCN)c1ccccc1)C(=O)N[C@H](Cc1ccccc1)C(=O)N[C@@H](Cc1cn(Cc2ccccc2)cn1)C(N)=O,,"ATCC 33591, methicillin-resistant",,,IC50,> 20 mg/L
CCCCCCCCCCCCCCCCCCn1cc(CN(CCC(=O)NCCN(CCC(=O)NCCN(CCC(=O)NCCN(C)C)CCC(=O)NCCN(C)C)CCC(=O)NCCN(CCC(=O)NCCN(C)C)CCC(=O)NCCN(C)C)CCC(=O)NCCN(CCC(=O)NCCN(CCC(=O)NCCN(C)C)CCC(=O)NCCN(C)C)CCC(=O)NCCN(CCC(=O)NCCN(C)C)CCC(=O)NCCN(C)C)nn1,,"ATCC 25904 MSSA, LB broth",18 h,,MIC,> 96 mg/L
CCCCCC(=O)Oc1c(C)c(OC)c2c(/C=C/c3ccccc3)c(CCCC)c(=O)oc2c1C,"microbial killing, broth dilution",ATCC25923,,,MBC,> 5000 mg/L
C=C1CNCC2Nc3c(F)cc(Br)cc3C12CCNS(=O)(=O)c1ccc(Cl)cc1 (stereo not drawn),,MRSA ATCC BAA-44,with: cefazolin,,minimum resensitizing concentration,4 µg/mL
COc1c(C)c(O)c(C(=O)C=Cc2ccccc2)c(OC)c1C,"microbial killing, broth dilution",ATCC25923,,,MBC,> 5000 mg/L
CC(CCCOC(=O)CCC[N+](C)(C)C)C1CCC2C3CCC4CC(OC(=O)CCC[N+](C)(C)C)CCC4(C)C3CCC12C (stereo not drawn),"microbial growth, disc diffusion",ATCC29213,"15.6 µg/disc, 24 h",,inhibition zone,11 mm
O=C(O)c1ccccc(=O)c1O,"microbial growth, broth dilution",ATCC29213,,,MIC80,19.8 µM
C=C(C)C(=O)NCCCCCCCCCCOCc1cn(CCCCCCCCCCNC(=O)C(=C)C)nn1,"growth, turbidity OD600",,24 h,,IC50,> 100 µM
